Assay results from different studies.
Protocols differ between the studies behind these lines. ± gives the spread as reported.
KCNH2: Voltage-gated inwardly rectifying potassium channel KCNH2 (KCNH2, Homo sapiens, UniProt Q12809)
SLCO1B1: Solute carrier organic anion transporter family member 1B1 (SLCO1B1, Homo sapiens, UniProt Q9Y6L6)
UniProt Q9Y6L6, sequence (whole entry, looked up): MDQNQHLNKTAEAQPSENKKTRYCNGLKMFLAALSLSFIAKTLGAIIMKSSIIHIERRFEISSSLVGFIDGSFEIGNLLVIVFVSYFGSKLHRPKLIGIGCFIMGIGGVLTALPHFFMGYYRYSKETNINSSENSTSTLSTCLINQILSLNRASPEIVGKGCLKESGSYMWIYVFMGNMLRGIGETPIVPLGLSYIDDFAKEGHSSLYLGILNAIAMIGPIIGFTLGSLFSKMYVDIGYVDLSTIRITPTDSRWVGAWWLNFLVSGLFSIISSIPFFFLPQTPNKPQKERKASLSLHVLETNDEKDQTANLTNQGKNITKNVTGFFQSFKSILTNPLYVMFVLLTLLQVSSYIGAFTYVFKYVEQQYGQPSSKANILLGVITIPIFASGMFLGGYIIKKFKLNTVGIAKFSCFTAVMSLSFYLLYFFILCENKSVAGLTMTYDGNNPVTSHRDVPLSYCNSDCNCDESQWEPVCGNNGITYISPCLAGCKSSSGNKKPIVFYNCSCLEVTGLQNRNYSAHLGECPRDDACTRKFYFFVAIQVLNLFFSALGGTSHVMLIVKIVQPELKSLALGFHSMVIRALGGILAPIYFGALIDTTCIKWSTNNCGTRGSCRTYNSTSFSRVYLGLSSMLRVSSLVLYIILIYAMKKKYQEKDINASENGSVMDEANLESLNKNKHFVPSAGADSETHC
CYP2D6: Cytochrome P450 2D6 (CYP2D6, Homo sapiens, UniProt P10635)
UniProt P10635, sequence (whole entry, looked up): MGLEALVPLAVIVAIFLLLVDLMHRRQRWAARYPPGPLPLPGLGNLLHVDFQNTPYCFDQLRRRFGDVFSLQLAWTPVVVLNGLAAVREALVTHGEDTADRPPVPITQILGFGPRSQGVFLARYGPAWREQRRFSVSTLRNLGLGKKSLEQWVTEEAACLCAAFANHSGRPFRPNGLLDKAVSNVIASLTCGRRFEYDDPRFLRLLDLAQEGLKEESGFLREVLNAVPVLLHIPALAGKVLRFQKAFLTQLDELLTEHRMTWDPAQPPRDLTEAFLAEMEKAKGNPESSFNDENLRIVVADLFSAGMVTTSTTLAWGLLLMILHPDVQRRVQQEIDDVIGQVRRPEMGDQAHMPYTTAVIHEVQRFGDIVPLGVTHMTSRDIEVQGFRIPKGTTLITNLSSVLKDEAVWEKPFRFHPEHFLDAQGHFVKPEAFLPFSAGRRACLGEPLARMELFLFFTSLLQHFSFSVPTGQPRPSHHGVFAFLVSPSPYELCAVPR
CYP2B6: Cytochrome P450 2B6 (CYP2B6, Homo sapiens, UniProt P20813)
UniProt P20813, sequence (whole entry, looked up): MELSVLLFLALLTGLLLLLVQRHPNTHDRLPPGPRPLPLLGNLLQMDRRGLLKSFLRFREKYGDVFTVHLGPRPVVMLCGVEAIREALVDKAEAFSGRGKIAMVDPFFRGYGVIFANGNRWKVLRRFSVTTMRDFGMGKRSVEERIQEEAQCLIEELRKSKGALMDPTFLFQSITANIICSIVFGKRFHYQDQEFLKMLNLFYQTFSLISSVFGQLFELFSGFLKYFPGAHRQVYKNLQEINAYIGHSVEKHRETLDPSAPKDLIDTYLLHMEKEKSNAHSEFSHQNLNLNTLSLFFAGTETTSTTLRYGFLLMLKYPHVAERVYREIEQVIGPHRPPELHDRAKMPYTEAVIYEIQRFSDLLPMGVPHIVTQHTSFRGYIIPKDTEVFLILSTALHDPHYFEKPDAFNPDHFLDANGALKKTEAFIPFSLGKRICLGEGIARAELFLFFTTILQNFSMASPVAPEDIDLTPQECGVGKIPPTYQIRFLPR
UniProt P08684, sequence (whole entry, looked up): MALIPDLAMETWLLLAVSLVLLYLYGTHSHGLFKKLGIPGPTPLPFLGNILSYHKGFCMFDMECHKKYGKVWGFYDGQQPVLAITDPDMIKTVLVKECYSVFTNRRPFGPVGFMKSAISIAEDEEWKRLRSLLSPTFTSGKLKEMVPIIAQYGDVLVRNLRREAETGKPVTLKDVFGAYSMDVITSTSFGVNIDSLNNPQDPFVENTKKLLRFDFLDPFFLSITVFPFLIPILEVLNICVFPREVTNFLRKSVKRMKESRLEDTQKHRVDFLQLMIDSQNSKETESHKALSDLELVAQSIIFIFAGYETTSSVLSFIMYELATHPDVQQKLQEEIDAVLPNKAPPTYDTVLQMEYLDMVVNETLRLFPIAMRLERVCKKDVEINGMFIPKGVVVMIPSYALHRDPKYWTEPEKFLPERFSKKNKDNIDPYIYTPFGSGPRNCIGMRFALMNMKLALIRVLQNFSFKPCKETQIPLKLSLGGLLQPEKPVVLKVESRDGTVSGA
UniProt P61073, sequence (whole entry, looked up): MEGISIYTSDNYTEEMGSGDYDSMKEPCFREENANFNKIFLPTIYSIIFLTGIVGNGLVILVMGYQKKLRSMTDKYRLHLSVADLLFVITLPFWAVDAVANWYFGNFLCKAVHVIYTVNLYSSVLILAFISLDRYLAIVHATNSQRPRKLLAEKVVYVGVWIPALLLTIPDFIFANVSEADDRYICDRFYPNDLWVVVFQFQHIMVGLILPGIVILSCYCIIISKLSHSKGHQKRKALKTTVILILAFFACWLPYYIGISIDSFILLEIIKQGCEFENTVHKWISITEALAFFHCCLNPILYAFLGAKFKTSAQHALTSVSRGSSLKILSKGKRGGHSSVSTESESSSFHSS
UniProt P58406, sequence (whole entry, looked up): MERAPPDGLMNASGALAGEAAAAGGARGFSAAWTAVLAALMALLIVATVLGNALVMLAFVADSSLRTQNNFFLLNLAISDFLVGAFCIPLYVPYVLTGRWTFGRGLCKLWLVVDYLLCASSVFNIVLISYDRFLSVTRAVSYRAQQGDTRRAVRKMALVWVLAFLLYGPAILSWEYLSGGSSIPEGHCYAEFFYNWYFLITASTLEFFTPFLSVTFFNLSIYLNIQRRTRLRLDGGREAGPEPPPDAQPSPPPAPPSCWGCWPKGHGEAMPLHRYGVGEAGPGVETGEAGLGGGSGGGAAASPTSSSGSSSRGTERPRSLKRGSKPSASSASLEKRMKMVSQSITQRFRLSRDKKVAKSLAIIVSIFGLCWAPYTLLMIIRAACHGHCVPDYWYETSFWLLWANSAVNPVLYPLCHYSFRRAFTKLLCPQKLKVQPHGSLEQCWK
UniProt P15145, sequence (whole entry, looked up): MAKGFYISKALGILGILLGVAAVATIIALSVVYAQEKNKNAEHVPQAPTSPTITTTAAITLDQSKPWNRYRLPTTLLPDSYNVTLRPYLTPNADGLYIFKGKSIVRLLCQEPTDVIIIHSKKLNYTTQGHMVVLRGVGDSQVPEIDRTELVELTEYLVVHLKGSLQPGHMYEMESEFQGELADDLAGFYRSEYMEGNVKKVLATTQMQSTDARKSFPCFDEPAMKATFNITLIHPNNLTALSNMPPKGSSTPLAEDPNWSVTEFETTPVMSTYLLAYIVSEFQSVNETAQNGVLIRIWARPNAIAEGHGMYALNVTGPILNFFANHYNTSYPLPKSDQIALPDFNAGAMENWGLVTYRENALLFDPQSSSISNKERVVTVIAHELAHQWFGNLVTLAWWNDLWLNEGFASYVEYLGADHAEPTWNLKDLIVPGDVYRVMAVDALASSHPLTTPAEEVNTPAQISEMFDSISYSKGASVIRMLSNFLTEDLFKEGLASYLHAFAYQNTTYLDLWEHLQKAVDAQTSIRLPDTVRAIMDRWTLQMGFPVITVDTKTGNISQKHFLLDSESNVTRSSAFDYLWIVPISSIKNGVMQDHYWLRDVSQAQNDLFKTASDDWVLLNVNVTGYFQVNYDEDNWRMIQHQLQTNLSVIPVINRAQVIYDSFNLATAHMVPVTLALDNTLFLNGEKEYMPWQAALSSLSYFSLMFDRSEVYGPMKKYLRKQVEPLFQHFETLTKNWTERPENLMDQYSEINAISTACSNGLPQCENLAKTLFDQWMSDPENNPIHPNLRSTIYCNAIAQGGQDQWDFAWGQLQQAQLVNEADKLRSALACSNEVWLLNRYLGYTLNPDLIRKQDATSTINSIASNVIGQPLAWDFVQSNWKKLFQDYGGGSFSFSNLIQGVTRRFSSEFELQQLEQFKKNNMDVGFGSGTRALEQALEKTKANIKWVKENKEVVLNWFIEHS
UniProt P00760, sequence (whole entry, looked up): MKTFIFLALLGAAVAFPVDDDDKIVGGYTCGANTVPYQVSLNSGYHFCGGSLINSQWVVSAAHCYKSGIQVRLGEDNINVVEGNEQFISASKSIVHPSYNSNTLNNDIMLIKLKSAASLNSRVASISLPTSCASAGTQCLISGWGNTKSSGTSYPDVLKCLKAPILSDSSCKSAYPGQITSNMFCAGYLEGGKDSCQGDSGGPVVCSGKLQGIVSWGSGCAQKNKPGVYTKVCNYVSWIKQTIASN

The half-life of C=C(C)[C@@H]1CCC(CO)=C[C@H]1c1c(O)cc(CCCCC)cc1O is reported as 16.5 h (CYP3A4/CYP2C19; human; 750 mg single dose, alone).
CC[C@H](C)[C@H](NC(=O)[C@H](C)NC(=O)[C@@H](NC(=O)[C@H](CC(=O)O)NC(=O)[C@H](CCCCN)NC(=O)[C@H](CO)NC(=O)[C@@H](NC(=O)[C@H](CC(N)=O)NC(=O)[C@H](C)NC(=O)[C@@H](NC(=O)[C@H](CCC(=O)O)NC(=O)[C@H](CCCCN)NC(=O)[C@@H](NC(=O)[C@@H](NC(=O)[C@H](Cc1c[nH]cn1)NC(=O)[C@H](CCCCN)NC(=O)[C@@H](NC(=O)[C@H](CCCCN)NC(=O)[C@H](CCCCN)NC(=O)[C@@H](NC(=O)[C@H](CC(C)C)NC(=O)[C@H](CCCCN)NC(=O)[C@H](CC(N)=O)NC(=O)[C@H](Cc1ccccc1)NC(=O)[C@H](CCCNC(=N)N)NC(=O)[C@H](CCCCN)NC(=O)[C@H](CCCNC(=N)N)NC(=O)[C@H](Cc1ccccc1)NC(=O)CN)C(C)C)C(C)C)[C@@H](C)O)[C@@H](C)CC)[C@@H](C)O)C(C)C)C(C)C)C(=O)N[C@H](C(=O)N[C@@H](C)C(=O)NCC(=O)N[C@@H](CO)C(=O)NCC(=O)N[C@H](C(=O)N[C@@H](C)C(=O)N[C@H](C(=O)NCC(=O)N[C@@H](C)C(=O)N[C@@H](C)C(=O)N[C@@H](CCSC)C(N)=O)C(C)C)C(C)C)C(C)C: “highest inactive concentration” greater than 30 µM (KCNH2; potassium current, automated patch clamp).
CC[C@@H]1CN2CCc3c([nH]c4cccc(OC)c34)[C@@H]2C[C@@H]1/C(=C\OC)C(=O)OC gave an inhibition of 40% (UDP-glucuronosyltransferase, rat; 4-MU glucuronidation, inhibitor; rat liver microsomes; 100 µM, 30 min, pH 7.4, together with: 4-methylumbelliferone 100 µM).
The pKa of CC#N.O=S(=O)([O-])C(F)(F)F.O=S(=O)([O-])C(F)(F)F.Oc1ccc(O)c(CN(CCN(Cc2ccccn2)Cc2ccccn2)Cc2ccccn2)c1.[Mn+2] is reported as 3.1 (Mn(II) complex, pyridine group; potentiometric pH titration; 25 °C, 100 mM KCl).
[64Cu+2].c1ccc(CNCc2ccc(CN3CCCNCCNCCCNCC3)cc2)nc1 gave a tumour-to-muscle ratio of 104 ± 9.97 (CXCR4; NOD/SCID mouse, U87 and U87-stb-CXCR4 xenografts; iv, 90 min, no blocking dose; relative to: U87-stb-CXCR4 tumour over muscle).
For CC(CCC(=O)NCC(=O)O)C1CCC2C3C(O)CC4CC(OC5OC(C(=O)O)C(O)C(O)C5O)CCC4(C)C3CCC12C (stereo not drawn), the uptake ratio was no less than 6 (SLCO1B1; substrate; relative to: OATP1B1 over OATP1B3 or OATP2B1).
For C/C=C/C[C@@H](C)[C@@H](O)[C@H]1C(=O)N[C@@H](CC)C(=O)N(C)C(Cc2ccc(C(=O)O)cc2)C(=O)N(C)[C@@H](CC(C)C)C(=O)N[C@@H](C(C)C)C(=O)N(C)[C@@H](CC(C)C)C(=O)N[C@@H](C)C(=O)N[C@H](C)C(=O)N(C)[C@@H](CC(C)C)C(=O)N(C)[C@@H](CC(C)C)C(=O)N(C)[C@@H](C(C)C)C(=O)N1C (stereo partly drawn), the inhibition was -3% (calcineurin; phosphatase activity, inhibitor, measured: phosphate release from RII phosphopeptide; 720 nM, together with: rat cyclophilin A complex).
For CC(CCC(=O)NCC(=O)O)C1CCC2C3CCC4CC(OC5OC(C(=O)O)C(O)C(O)C5O)CCC4(C)C3CC(O)C12C (stereo not drawn), the uptake ratio was 78 ± 6.9 (SLCO1B1; substrate; HEK293 transfected; 1 µM, 2 min; relative to: wild-type HEK293).
With CCCCCC1=C(NCC)C(=O)C(C/C=C(\C)CCC=C(C)C)=C(O)C1=O the inhibition was less than 50% (ABCB11 (Homo sapiens, UniProt O95342); transport, inhibitor; up to 22.5 µM).
CNC(=O)Oc1cc(C)c(S(C)(=O)=O)c(C)c1 gave an inhibition of less than 0% (CYP2D6; inhibitor; human liver microsomes; 10 µM, pH 7.4, together with: dextromethorphan).
For CSc1nc2[nH]nc([N+](=O)[O-])c(=O)n2n1, inhibition read “no inhibition” (SLCO1B1; transport activity, measured: OATP1B1; 100 µM).
With CC[C@H](C)[C@H](NC(=O)[C@H](CC(N)=O)NC(=O)[C@H](Cc1ccccc1)NC(=O)CNC(=O)[C@H](CC(C)C)NC(=O)[C@H](Cc1ccccc1)NC(=O)[C@H](Cc1ccccc1)NC(=O)Cc1ccc2ccccc2c1)C(=O)O the remaining compound was 70.7 ± 2.4% (proteinase K; substrate; hydrogel nanofibrils; 622 µM, 24 h, pH 6.4, 37 °C, together with: proteinase K 3.2 U/mL).
For O=C(O)CC[C@H](NC(=O)CNC(=O)[C@@H](Cc1ccccc1)NC(=O)[C@@H](Cc1ccccc1)NC(=O)Cc1ccc2ccccc2c1)C(=O)N[C@@H](Cc1ccc(OP(=O)(O)O)cc1)C(=O)O, the remaining compound was roughly 70% (proteinase K; proteolytic stability; 200 µM, 32 h, together with: proteinase K 3 U/mL).
C=CC(=O)Nc1cc(Nc2nccc(-c3cn(C)c4ccccc34)n2)c(OCC(F)(F)F)nc1N(C)CCN(C)C — result for “activity vs control”: 77.6% (Cytochrome P450 3A4 (CYP3A4, Homo sapiens, UniProt P08684); enzyme activity, inhibitor; human, liver microsomes; 0.33 µM, midazolam probe).
CC(C)(O)c1ccccc1CC[C@H](c1cccc(/C=C/c2ccc3ccc(Cl)cc3n2)c1)[S+]([O-])CC1(CC(=O)O)CC1 (stereo partly drawn) gave an inhibition of less than 0% (CYP2D6; inhibitor; human liver microsomes; 10 µM, pH 7.4, together with: dextromethorphan).
For CCN(CC)CCOc1ccc(-c2nnn(Cc3ccc(OC)cc3)c2N)cc1, the IC50 was 15.7 µM (KCNH2; ion current, inhibitor, patch clamp).
Under “remaining intact peptide”, NCCCC[C@@H]1NC(=O)[C@@H](N)Cc2cccc(c2)C[C@@H](C(=O)O)NC(=O)CNC1=O is recorded as no more than 95% (Serine protease 1 (PRSS1, Bos taurus, UniProt P00760); proteolytic degradation; 50 µM, 5 h, pH 7.4, 25 °C, together with: 0.1 mg/mL PRSS1).
With CN1C(=O)[C@@H](Cc2ccc(O)cc2)NC(=O)CNC(=O)[C@H](Cc2ccc3ccccc3c2)NC(=O)[C@H](CCCNC(=N)N)NC(=O)[C@H]1CCCNC(=O)c1ccc(CNC(=O)CN2CCN(CC(=O)O)CCN(CC(=O)O)CCN(CC(=O)O)CC2)cc1 [gallium-68 labelled] the SUVmax was 16.9 (CXCR4 (Homo sapiens, UniProt P61073); PET; human, lymphoma lesion).
For CNC(=O)CC[C@@H](NC(=O)[C@@H](Cc1ccc(OP(=O)(O)O)cc1)NC(=O)[C@@H](Cc1ccccc1)NC(=O)[C@@H](Cc1ccccc1)NC(=O)Cc1ccc2ccccc2c1)C(=O)NC, the dephosphorylated fraction was 47.6% (alkaline phosphatase; substrate; HepG2; 200 µM, 24 h).
For Cc1ccc2nc(C)c(C(=O)NCc3ccc(C(F)(F)F)cc3)n2c1, the IC50 was greater than 20 µM (CYP2B6; inhibitor).
O=C1Cc2cc(CCN3CCN(C4=NS(=O)(=O)c5ccccc54)CC3)c(Cl)cc2N1 gave an inhibition of less than 0% (CYP2D6; inhibitor; human liver microsomes; 10 µM, pH 7.4, together with: dextromethorphan).
CCCCCc1cc(O)c2c(c1)OC(C)(C)C1CCC(C(=O)OC3OC(C(=O)O)C(O)C(O)C3O)=CC21 (stereo not drawn): inhibition “inhibited” (CYP2B6; inhibitor; HEK293 overexpressing CYP2B6, recombinant microsomes; concentration not given, together with: efavirenz).
C[C@@H]1CCCN1CCc1cc2cc(C(=O)c3ccc([18F])cc3)ccc2o1: “brain radioactivity concentration” roughly 2.3 SUV (Hrh3 (Mus musculus, UniProt P58406); PET; mouse, brain; dose not given, 90 min, baseline).
The inhibition of CC(C)(O)c1ccccc1CC[C@H](c1cccc(/C=C/c2ccc3ccc(Cl)cc3n2)c1)S(=O)(=O)CC1(CC(=O)O)CC1 is reported as less than 0% (CYP2D6; inhibitor; human liver microsomes; 2 µM, pH 7.4, together with: dextromethorphan).
The half-life of C=C(C)[C@@H]1CCC(C(=O)O)=C[C@H]1c1c(O)cc(CCCCC)cc1O is reported as 26.8 h (CYP3A4/CYP2C19; human; 750 mg single dose, alone).
The inhibition of CNC(=O)Oc1cc(C)c([S+](C)[O-])c(C)c1 (stereo not drawn) is reported as less than 0% (CYP2D6; inhibitor; human liver microsomes; 10 µM, pH 7.4, together with: dextromethorphan).
The degradation time of NCC(=O)N[C@@H](Cc1ccccc1)C(=O)N[C@@H](Cc1ccccc1)C(=O)N[C@@H](CC(=O)O)C(=O)O is reported as no more than 5 h (Aminopeptidase N (ANPEP, Sus scrofa, UniProt P15145); peptide degradation, substrate, MS; pH 7.5, 37 °C).
